Measured values pooled from the literature.
Parts stem from different laboratories: compare values within a part only.

Set 1
Target: RING finger protein unkempt homolog, zinc fingers 1-6, SBP tag (UNK, Homo sapiens, UniProt Q9C0B0, residues 30-357)
UniProt Q9C0B0, sequence (30-357, looked up): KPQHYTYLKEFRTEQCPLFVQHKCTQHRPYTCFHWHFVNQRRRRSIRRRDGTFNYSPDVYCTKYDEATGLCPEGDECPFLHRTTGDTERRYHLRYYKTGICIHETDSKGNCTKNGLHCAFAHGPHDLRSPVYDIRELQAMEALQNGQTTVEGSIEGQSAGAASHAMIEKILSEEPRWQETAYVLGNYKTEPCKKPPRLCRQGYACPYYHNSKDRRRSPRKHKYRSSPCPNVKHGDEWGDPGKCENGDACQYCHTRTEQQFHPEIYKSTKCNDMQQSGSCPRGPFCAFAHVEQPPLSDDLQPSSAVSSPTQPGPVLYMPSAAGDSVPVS
Technique: RNA Bind-n-Seq
Form: RNA
Matrix: in vitro
Concentration: 100 nM
Notes: RNA with constant flanks, vertebrate orthologous sites, ends assumed
Relative to: input RNA pool
Direction: higher = stronger binding
All sequences stand within: GGGAGUUCUACAGUCCGACGAUC … CAACAGAGGAUUGAGCAUCA
Oligonucleotide	bound/input enrichment [ratio]
AAUCAAUAGGAUUACAUAAUACUAAAGUUGCAGUUGAAAGAAUAUCCAAGUAUGUGUUCGUAGUUACUAAAAAAAUUAUAGCUGUUAUUGCCUUGUGUUUAUAGCCCUGUUUCAGGUUUC	2.03
CUGAACAAAUGCCCAGUUCGGAGCACUCCUUACAGGGGUUCUUUGGCCCCGGCGGUGAAGUGGAUGUAUCCUAUCAGCAGGGCCCGACCAGUCAGAACACGGUGUCCUGCAGUCCUUCCA	0.239
ACAUGCCACUGUCACCAAAACAAACAACUACCACUUUCCAAAUUUCAUUCAGAACCAUUUUAGUGUUUUCCUAUUCCCUACCCCUCCCACUACUUUCAAUGAUGAAAUACCCUAAGUUAA	6.94
AAAUAUACUUCAUGCCAUGGACUCCGUAUCGCACGGAUACUUUGAUAGAAUAUGCUUCUUUAGAGGACUUCCAGAACGGACGCCAGCAGACAACGUACAAACUCCCAAACCGAGUGGAUG	0.495
CUACUAUGAACAACUCAGGGCAGUAUUCUCGAUAUCCUUACAGUAACCUAAAUCAGGGAUUAGUUAACAAUACAGGGAUGAAUCAAAAUUUAGGCCUUACAAAUAAUCCUCCAAUGAGUC	1.84
UAUUAGUGUCAUACCAGCAUAUUAACCUCUCGUCUGUGCACAGCUUCAAAUGUUACCGUCUAGUUAGAUUUUUAUUUAAAAUAUGAAAAACUGCUUUUCCCAAGACGUUUUUUAAAAAAC	1.44
UUACAGUCAUUGAUGGACUCUAUUUUUUUAUUAUUACUUGGACCUUGGUCGUUUUUAUACUAGCAAAAAAAUGUCUUGUUUUAAUUUGUGUUUUUUGGGGGGGCGGGUGGGCGGGCGGGA	2.4
AUCUCGUGCCUCUCCCCACGGGGGGUGGGGAAAGCUGAAUGACCCUCAGCUGUUCCAAUCCAGUGGGUUUUUUUUAUUUGUUUUUUGAUUUAAAAAGAAAUUACUGUAUUUAUUAUGACA	0.354
AGAGAAUUUUAAUCAAGAAUCUGAAAGUAGAAAUACAGGACCAUGGUUAUCUUCCUCACUUAGAAAUAGAUGCACACCUUUGUUCUCCAGAAGGCGGCGAGAGGGACGAGAUGAAUCUUC	1.14
CUGUAGUGCUUCAGCCAGCAAUUGUAGAGUGCUAUUUAUUUGUGUCUGUGAGUUUGUACAUAACCCUAACCUCAUAUUGUUGCUGAGUUUCAUUUUGAGGAAGGCAAGUUUGAGUUUUCU	0.509
GAGCUAAAGGAGUUAGCAUCUUUAUUUUUGUAUCAAAGAUAAAGGUUAUUUUGAAAUUAUUAGGAUUUUUACACAACUCUGAAAUCUGUUGCUUUUGUAAACAAAUUGUUUGAGCUUAAG	0.806

Set 2
Target: Prothrombin, mature alpha-thrombin (F2, Homo sapiens, UniProt P00734)
Technique: aptamer microarray, sandwich
Form: DNA with 2'F-ANA
Matrix: in vitro
Concentration: 200 nM
Notes: whole 15-mer aptamer, many near background
Added: Cy3 exosite-II aptamer, 400 nM
Direction: higher = stronger binding
Oligonucleotide: GGTTGGTGTGGTTGG
Modification	mean fluorescence intensity [a.u.]
2'F-ANA at 3 9 15	1040
2'F-ANA at 2 3 4 8 9 10 11 13 14	165
2'F-ANA at 4 6 8 9 11 14	70.9
2'F-ANA at 3 4 7 10 11 12 14 15	181
2'F-ANA at 2 3 7 9 12 14	465
2'F-ANA at 1 4 6 7 8 9 10 11 15	50.3
2'F-ANA at 2 3 7 8 9 11 12 13 14	449
2'F-ANA at 1 2 3 4 8 9 10 11 14	51.5
2'F-ANA at 5 10 11 12 14	43.5
2'F-ANA at 2 3 4 8 9 13 15	408
2'F-ANA at 1 3 4 7 9 12 14	79.8
2'F-ANA at 1 3 7 10 12 14	63.3
2'F-ANA at 3 4 5 7 9 10	55.7
2'F-ANA at 2 3 6 7 9 15	587
2'F-ANA at 2 3 6 7 8 9 10 13 14 15	231
2'F-ANA at 1 2 3 4 7 9 11 13 14 15	62.1
2'F-ANA at 1 2 4 5 7 8	64.5
2'F-ANA at 2 3 6 8 9 10 13 14	245
2'F-ANA at 1 2 3 4 6 7 8 9 13 14 15	70.5
2'F-ANA at 1 2 4 6 7 8 9 13 15	92.2
2'F-ANA at 2 4 5 6 8 10 14 15	50.1
2'F-ANA at 2 4 5 9 15	68.5
2'F-ANA at 2 3 4 7 8 14	413
2'F-ANA at 1 2 6 8 15	204
2'F-ANA at 3 4 5 10 12	80.7

Set 3
Target: RNA binding protein fox-1 homolog 2, RRM domain, GST-SBP tag (RBFOX2, Homo sapiens, UniProt O43251-10, residues 100-194)
Technique: RNA Bind-n-Seq
Form: RNA
Matrix: in vitro
Concentration: 365 nM
Notes: natural RNA segment, single round, ends assumed
Relative to: no-protein control
Direction: higher = stronger binding
All sequences stand within: GGGAGUUCUACAGUCCGACGAUC … UGGAAUUCUCGGGUGCCAA
Residues (chain): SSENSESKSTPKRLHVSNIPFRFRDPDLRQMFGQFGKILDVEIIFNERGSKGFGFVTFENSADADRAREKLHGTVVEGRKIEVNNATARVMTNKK
Oligonucleotide	RBNS enrichment (R)
AGAUGUCAUUUUGAGCUAAAACCCAGUUAGAUGCAGUAAAAAACCACUUUGAGAGAUGGCUUGUGUUAGGCUGAAACUGAUAGAAACGUUAACUGCUGCAGCUCUCUUUG	0.814
AUUAAAAUAUUCUCCUUUCGUCUUCAUAUUUACCUUCUGAGGUAAUUUUUUAACUUAAUGUGUUACUACAAAGAUUUGCAGAUCUUUAAUCAAGCACUAUGUUAAUACUG	0.646
AGAGAUCGGAGUUUGACUAGGUUUCCUGUCUGCAAGUCAAUUUUUUUUGUGAAAUUAUCUUGAUUUACAACGUGGUAUUGUAUUUUACAGAGUUCAUGAAGCCCCAAACA	0.58
UGAGAACAAAGGUCUAGGAUACUGCAUUAGUUACCAGAAAACUAGGGGAAUUUAGAGGGAAAAAAAAUCCAUGUUUUCUAUUUCCCAGGUUUUUAAAAAGUAGCUCUUCC	0.52
UUCAUUGAGUGAAAUAUUUUAAGCCAAAAAAAAAUUCCCUUUUUAAAAAAGGGGGUUUAAAUACUGUUGGCAUUUUUAUGGUUCCUUUAAAUGCCCUAGCUAUUCCCAGA	0.661
UUGGGAGACAAACUAAGCAAAUCUGGGAUGGGGGCAGUCUGACCUUCUUCCUGCUUCGGUGAUCCGAGGCUAGAGGGAGCUGCAUGGUAUCUUGUUACUAACUCAGUAUG	0.923
CACAUGGAAUUCCGUUUUCUGAGGUACAGCACAUUUUAGGUAACAGUAUUUAACUUGAAAUUCAUCAUGGGAGUCUGCUGCUAUACCAGGCACAAGAUAAAACUCCAAAA	0.461
CCCACGGAACUUUUUAAUAACACAACACUAAACAUCUAAAGAAUAUAAAACUUGGAAUCUUCUCACCCGUCACGUGGAGCUCCAUCUGUUUCAGCUGUUGAUGUAGUUUG	0.817
UGAAGACUCUGCAUCUCACUGAAAAUAUCAGAAUAUUCAUGUAUUUUCCUUGUCCUUGAGUUUUCCUAUGAAAGAAAUAUAUUUUGUUAGAUUUGAAUUAUCGAGGCAUU	0.681
AACAUGCUACAGUAGCUAAGAAGUAUUAAAACUAUAUACAUCCAUAUAAAGAUGAAAUAUGAACUAUCUCAUUAGAAGUCAUAGUUGACCACAGACAUGUUAUUCUUCUG	0.259
CCACUGGGGAGGAAUCCUGGACCAAGCACAAAAACUUAACAAAAGUGAUGUAAAAAUGAAAAGCCAAAUAAAAAUCUUUGGAAAAGAGCCUGGAGGUUCAACGAGGAAAA	0.507
UCUGGCUGGGCUGCUCAGGGUGACAUCAUAGCACCUCUGGGAAUGCUGCCGAAGAACCCCAUGGUCCUCCCACAAUACCAAAGCUUCCCUGUUUCCCCUUCUGCCUCCGU	0.746

Set 4
Target: Sal-like protein 4, full length isoform A (SALL4, Homo sapiens, UniProt Q9UJQ4, residues 1-1053)
UniProt Q9UJQ4, sequence (whole entry, looked up): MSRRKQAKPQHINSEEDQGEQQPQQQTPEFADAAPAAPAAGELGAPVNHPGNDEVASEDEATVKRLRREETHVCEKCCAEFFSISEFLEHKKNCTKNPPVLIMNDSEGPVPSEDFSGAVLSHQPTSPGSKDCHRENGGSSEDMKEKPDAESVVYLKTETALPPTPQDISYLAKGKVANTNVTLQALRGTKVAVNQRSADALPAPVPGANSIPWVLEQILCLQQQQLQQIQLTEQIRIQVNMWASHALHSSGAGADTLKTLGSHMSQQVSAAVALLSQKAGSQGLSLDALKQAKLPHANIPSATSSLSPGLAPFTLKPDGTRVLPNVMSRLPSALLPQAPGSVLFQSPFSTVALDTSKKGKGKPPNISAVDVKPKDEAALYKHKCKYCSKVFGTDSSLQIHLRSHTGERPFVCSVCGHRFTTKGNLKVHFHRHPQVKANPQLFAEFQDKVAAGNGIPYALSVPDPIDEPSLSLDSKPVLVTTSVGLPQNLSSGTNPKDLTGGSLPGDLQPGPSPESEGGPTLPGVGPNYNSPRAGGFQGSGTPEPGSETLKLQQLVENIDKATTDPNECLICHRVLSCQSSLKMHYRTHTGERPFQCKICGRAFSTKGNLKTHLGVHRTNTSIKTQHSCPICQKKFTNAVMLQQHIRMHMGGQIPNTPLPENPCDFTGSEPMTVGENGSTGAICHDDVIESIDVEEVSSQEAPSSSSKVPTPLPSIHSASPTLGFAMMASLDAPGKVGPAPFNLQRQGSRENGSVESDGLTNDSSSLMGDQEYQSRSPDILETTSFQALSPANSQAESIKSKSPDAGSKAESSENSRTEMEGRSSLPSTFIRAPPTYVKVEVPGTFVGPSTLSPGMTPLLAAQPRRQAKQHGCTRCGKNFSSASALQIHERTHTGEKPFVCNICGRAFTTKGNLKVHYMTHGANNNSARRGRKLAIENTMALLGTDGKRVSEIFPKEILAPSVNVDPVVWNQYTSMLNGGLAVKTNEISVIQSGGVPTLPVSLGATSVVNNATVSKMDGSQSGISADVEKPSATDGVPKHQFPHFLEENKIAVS
Technique: universal PBM
Form: double-stranded DNA, one strand shown
Matrix: in vitro
Concentration: 600 nM
Notes: 8-mer, flanks averaged, mean of replicates
Direction: higher = stronger binding
Oligonucleotide	E-score
AGCGCTCC	-0.19
CCATCTTC	0.123
AAACTTTA	0.246
AGGGAGTC	-0.191
CAAACAAG	-0.0788
GACCCTAA	-0.127
GGCGAAGA	-0.198
AGAATGCT	0.0635
GACGATAC	-0.0301
CATCACCC	-0.199
CACCCATG	-0.024
CGAGCAAG	-0.311
AACGTGTC	-0.0627
GCGGAGCC	-0.435
ATTCAAGC	0.184
GGGAAAGA	-0.159

For quick reference, copied from above (set 2):
Modification	mean fluorescence intensity [a.u.]
2'F-ANA at 1 4 6 7 8 9 10 11 15	50.3
2'F-ANA at 2 3 6 7 9 15	587
2'F-ANA at 1 3 4 7 9 12 14	79.8
2'F-ANA at 1 2 3 4 6 7 8 9 13 14 15	70.5
2'F-ANA at 1 3 7 10 12 14	63.3
2'F-ANA at 4 6 8 9 11 14	70.9
2'F-ANA at 2 3 7 9 12 14	465
2'F-ANA at 1 2 4 6 7 8 9 13 15	92.2
2'F-ANA at 2 4 5 9 15	68.5
